Published values pooled from the literature.
A part holds a random share of what one study measured.

Sample 1
Target: RNA binding protein fox-1 homolog 2, RRM domain, GST-SBP tag (RBFOX2, Homo sapiens, UniProt O43251-10, residues 100-194)
Method: RNA Bind-n-Seq
Form: RNA
Sample: in vitro
Concentration: 365 nM
Notes: natural RNA segment, single round, ends assumed
Baseline: no-protein control
Reading: higher = stronger binding
Oligonucleotide | RBNS enrichment (R)
GGGAGUUCUACAGUCCGACGAUCCUCCAGCCUGGGCAACAGAGUGAGGCCCUGUCUCAAACACAUAAAAGGCAGUGGCCCACGCCUGUAAUCCCAGCACUUUGGGAGGCCAAGGCGGGCAGAUCACGAGGUCAUGGAAUUCUCGGGUGCCAA | 0.381
GGGAGUUCUACAGUCCGACGAUCAGUCUGUGAGAGGGAGUCUCUCCUAGGCCAGAUGUGGGUUUCUGUACUCCAAGAGGAUAGGGAGGGCACUGCACCCAAGCAGGAGGUGAGGUCUGUCACUAGGCAGGAAAUGGAAUUCUCGGGUGCCAA | 0.749
GGGAGUUCUACAGUCCGACGAUCGCAUUGAAGCAUUAAAAAUUAUUUUUCUUAAAAUCUCUUUAAGGCCUUCUUGUUGCUGUUAGAAUAGUGCUAUAUAUCAGGUAUGUGACCAUUUAUUUCAGAAGGCUGAAUGGAAUUCUCGGGUGCCAA | 0.464

Sample 2
Target: Histone acetyltransferase KAT6A, winged helix 2, GST fusion (KAT6A, Homo sapiens, UniProt Q92794, residues 85-181)
Method: protein binding microarray
Form: double-stranded DNA, one strand shown
Sample: in vitro
Concentration: not given
Notes: 8-mer, flanks averaged, mean of 2 arrays, mostly near background
Baseline: not given
Reading: higher = stronger binding
Residues (chain): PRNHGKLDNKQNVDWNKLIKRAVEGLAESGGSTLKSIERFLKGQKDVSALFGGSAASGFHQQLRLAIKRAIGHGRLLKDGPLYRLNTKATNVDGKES
Oligonucleotide | E-score
CCCATGGC | 0.0356
AAACCAAC | 0.139
AAAACCGA | 0.12
GTATTATA | 0.124
CCCCAAAC | -0.0136
GACTTGAA | -0.114

Sample 3
Target: Interferon regulatory factor 3, full length, phosphomimetic (IRF3, Homo sapiens, UniProt Q14653, residues 1-427, S386D/S396D/S398D/S402D/T404D/S405D)
Chain of UniProt Q14653 (whole entry, unmodified, looked up): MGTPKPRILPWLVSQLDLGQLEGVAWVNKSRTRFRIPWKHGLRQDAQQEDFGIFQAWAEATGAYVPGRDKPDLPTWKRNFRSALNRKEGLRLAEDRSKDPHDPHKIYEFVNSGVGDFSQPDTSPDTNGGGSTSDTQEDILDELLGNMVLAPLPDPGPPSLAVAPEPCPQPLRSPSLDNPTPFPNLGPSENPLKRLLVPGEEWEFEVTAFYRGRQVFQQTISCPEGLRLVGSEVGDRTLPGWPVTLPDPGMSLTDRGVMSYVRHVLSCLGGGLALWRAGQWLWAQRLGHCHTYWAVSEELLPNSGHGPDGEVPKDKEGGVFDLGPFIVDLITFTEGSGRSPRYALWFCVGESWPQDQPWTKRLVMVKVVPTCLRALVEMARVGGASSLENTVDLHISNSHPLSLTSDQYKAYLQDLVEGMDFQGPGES
Method: protein-binding microarray
Form: double-stranded DNA, one strand shown
Sample: in vitro
Concentration: 2540 nM top
Notes: 60-bp whole probe
Added: salmon DNA 0.4 mg/ml
Baseline: random background probes
Reading: higher = stronger binding
Oligonucleotide | fitted relative affinity [z-score]
GCCTAGCACTTAGGACTGTGGTATCGGTTAGTGCTAGTCTTGATTCGCTTGACGCTGCTG | 0.623
GCCTAGCACTTCGGTCTCCTTCTCCTTTAGTGCTAGGTCTTGATTCGCTTGACGCTGCTG | 4.61
GCCTAGCACTTAGAACTGGGTTTTCGATTAGTGCTAGTCTTGATTCGCTTGACGCTGCTG | 0.776

Single results of other studies
Molecule | target | assay | test system | setting | scale | measurement | result
PhoQ, residues 284 288 289 292 302 303 ASSHFY | PhoP, residues 12 14 15 18 19 VHSCL (Escherichia coli, UniProt P23836) | Sort-seq, refers to: YFP reporter | E. coli | PhoQ-PhoP variant library, added: 10 µM Mg2+ | baseline: high Mg2+ state, higher = stronger signaling | fold induction | 3.3

A few entries again (sample 3):
Oligonucleotide | fitted relative affinity [z-score]
GCCTAGCACTTCGGTCTCCTTCTCCTTTAGTGCTAGGTCTTGATTCGCTTGACGCTGCTG | 4.61
GCCTAGCACTTAGAACTGGGTTTTCGATTAGTGCTAGTCTTGATTCGCTTGACGCTGCTG | 0.776
